{"data": "Experimental data from different studies", "cell line": "MCF7", "note": "Lines come from different studies, so protocols differ. Several values in a cell are separate wells, animals, samples, runs or records. Numbers after ± are the reported error."}
{"SMILES": "C[C@H]1[C@H](C)CC[C@]2(C(=O)O)CC[C@]3(C)C(=CC[C@@H]4[C@@]5(C)CC[C@H](O)C(C)(C)[C@@H]5CC[C@]43C)[C@H]12", "test": "cell growth, MTT", "setting": "25 µg/mL, 48 h", "endpoint": "cell survival", "result": "54.97 ± 0.2%"}
{"SMILES": "CN1CCN(C2(CNC3CCN(c4cccc(-c5cc6cc(F)ccc6[nH]5)c4)CC3)CCC2)CC1", "endpoint": "GI50", "result": "1.24 µM"}
{"SMILES": "COc1ccc(-n2nc(C(C)=O)s/c2=N\\N=C(/C)c2ccc(NC(C)=O)cc2)cc1", "setting": "0.156 µM", "endpoint": "toxicity", "result": "80.7%"}
{"SMILES": "Oc1cccc2cccnc12", "setting": "concentration not given, 72 h", "endpoint": "IC50", "result": "> 200 µM"}
{"SMILES": "CC(=NNC(=O)c1cccc(C)c1)c1ccc(NC(=O)Cn2c(=O)c3c(ncn3C)n(C)c2=O)cc1", "test": "qRT-PCR, measured: IL-2", "setting": "4.85 µM, 24 h", "how to read": "relative to: untreated", "endpoint": "mRNA level", "result": "0.42 fold change"}
{"SMILES": "CC(C)=CCc1c(O)cc(O)cc1-c1cc2ccc(O)c(CC=C(C)C)c2o1", "test": "cell growth, MTT", "setting": "50 µg/mL, 48 h", "endpoint": "cell survival", "result": "54.37 ± 0.41%"}
{"SMILES": "C[C@]12CC[C@H](O)C[C@H]1CC[C@@H]1[C@@H]2CC[C@]2(C)[C@@H](c3ccc(=O)oc3)CC[C@]12O", "test": "RT-qPCR, measured: GREB1", "setting": "20 nM, 48 h, unit not given, with: estradiol", "how to read": "relative to: untreated", "endpoint": "mRNA level", "result": "1.28 and 2.2 and 1.37"}
{"SMILES": "CC[C@@H](C)[C@@H](NC(=O)[C@@H](Cc1c[nH]c2ccccc12)NC(=O)[C@@H](CCCNC(=N)N)NC(=O)[C@H](CCC(N)=O)NC(=O)[C@@H]1CCCN1C(=O)[C@H](CCCNC(=N)N)NC(=O)[C@H](CCCNC(=N)N)NC(=O)[C@H](CCCNC(=N)N)NC(=O)[C@H](CCC(N)=O)NC(=O)[C@H](CCCNC(=N)N)NC(=O)[C@H](CCCNC(=N)N)NC(=O)[C@H](CCCCN)NC(=O)[C@H](CCCCN)NC(=O)[C@H](CCCNC(=N)N)NC(=O)CN)C(=O)N[C@H](CCSC)C(=O)N[C@H](Cc1ccc(O)cc1)C(=O)N[C@H](Cc1ccccc1)C(N)=O", "test": "MTT", "endpoint": "sublethal dose", "result": "2 µM"}
{"SMILES": "N.N.[Cl][Pt][Cl]", "test": "cell viability", "setting": "48 h, light irradiation 2.5 min", "endpoint": "IC50", "result": "23.4 ± 0.58 µM"}
{"SMILES": "C/C1=C/C(=O)O[C@@H]2C[C@@H](CC[C@H](C)/C=C\\C=C\\CC1)O[C@@](O)([C@@H]1CSC(=O)N1CO)C2", "setting": "concentration not given", "how to read": "relative to: 1", "endpoint": "antiproliferative activity fold increase", "result": "4 fold"}
{"SMILES": "COc1cc(CCC[P+](c2ccccc2)(c2ccccc2)c2ccccc2)c(OC)c2c1OCO2.[I-]", "test": "SRB", "endpoint": "GI50", "result": "-5.74 log M"}
{"SMILES": "CC1(C(=O)Nc2ccc(O)c(Cl)c2Cl)CCCCC1", "test": "qRT-PCR", "setting": "concentration not given, 4 h", "endpoint": "basal RARβ2 mRNA level", "result": "decreased"}
{"SMILES": "Cn1cncc1C1=CN(c2ncnc3[nH]cnc23)CCS1", "endpoint": "CC50", "result": "> 200 µM"}
{"SMILES": "O=C1CCCCC1=C1Sc2nc3ccc(S(=O)(=O)N4CCCC4)cc3nc2S1", "test": "RT-qPCR, measured: Bax", "setting": "concentration not given", "how to read": "relative to: untreated", "endpoint": "mRNA level", "result": "3.79 fold"}
{"SMILES": "CC(C)N1CCC(NC2CCN(c3cccc(-c4cc5cc(F)ccc5[nH]4)c3)CC2)CC1", "endpoint": "GI50", "result": "1.39 µM"}
{"SMILES": "Oc1cc(O)cc(-c2cc3ccc(O)cc3o2)c1", "test": "cell growth, MTT", "setting": "25 µg/mL, 48 h", "endpoint": "cell survival", "result": "67.48 ± 0.61%"}
{"SMILES": "CCN(CC)c1ccc(C=NNC(=O)CSc2nc3ccccc3c(=O)n2Cc2ccc(S(N)(=O)=O)cc2)c(O)c1", "test": "NCI five-dose screen", "endpoint": "CC50", "result": "> 100 µM"}
{"SMILES": "COc1c(CCC[P+](c2ccccc2)(c2ccccc2)c2ccccc2)cc2c(c1OC)OCO2.[I-]", "test": "SRB", "endpoint": "LC50", "result": "-4.06 log M"}
{"note": "Repeated from above:"}
{"SMILES": "CC(C)=CCc1c(O)cc(O)cc1-c1cc2ccc(O)c(CC=C(C)C)c2o1", "test": "cell growth, MTT", "setting": "50 µg/mL, 48 h", "endpoint": "cell survival", "result": "54.37 ± 0.41%"}
{"SMILES": "C[C@]12CC[C@H](O)C[C@H]1CC[C@@H]1[C@@H]2CC[C@]2(C)[C@@H](c3ccc(=O)oc3)CC[C@]12O", "test": "RT-qPCR, measured: GREB1", "setting": "20 nM, 48 h, unit not given, with: estradiol", "how to read": "relative to: untreated", "endpoint": "mRNA level", "result": "1.28 and 2.2 and 1.37"}
{"SMILES": "CC[C@@H](C)[C@@H](NC(=O)[C@@H](Cc1c[nH]c2ccccc12)NC(=O)[C@@H](CCCNC(=N)N)NC(=O)[C@H](CCC(N)=O)NC(=O)[C@@H]1CCCN1C(=O)[C@H](CCCNC(=N)N)NC(=O)[C@H](CCCNC(=N)N)NC(=O)[C@H](CCCNC(=N)N)NC(=O)[C@H](CCC(N)=O)NC(=O)[C@H](CCCNC(=N)N)NC(=O)[C@H](CCCNC(=N)N)NC(=O)[C@H](CCCCN)NC(=O)[C@H](CCCCN)NC(=O)[C@H](CCCNC(=N)N)NC(=O)CN)C(=O)N[C@H](CCSC)C(=O)N[C@H](Cc1ccc(O)cc1)C(=O)N[C@H](Cc1ccccc1)C(N)=O", "test": "MTT", "endpoint": "sublethal dose", "result": "2 µM"}
